Published values gathered from unrelated publications.
Lines come from different studies, so protocols differ. Values joined by “and” are separate records of one study, mostly repeats; a detail may differ. ± gives the spread as reported. In brackets after ≈: the same amount, converted by molar mass.

COC1OC(C)C(OC2OC(C)C(O)C(OC3OC(C)C(OC4OC(C)C(O)C(OC5OC(C)C(OC6OC(C)C(O)C(OC7OC(C)C(OC8OC(C)C(O)C(OC9OC(C)C(O)C(OS(=O)(=O)O)C9OS(=O)(=O)O)C8OS(=O)(=O)O)C(OS(=O)(=O)O)C7OS(=O)(=O)O)C6OS(=O)(=O)O)C(OS(=O)(=O)O)C5OS(=O)(=O)O)C4OS(=O)(=O)O)C(OS(=O)(=O)O)C3OS(=O)(=O)O)C2OS(=O)(=O)O)C(OS(=O)(=O)O)C1OS(=O)(=O)O (centres unmarked)  thrombin time (human plasma; 128 µg/mL): 9.6 ± 0.6 s
CCN(CC)CC(=O)Nc1cccc(-n2cc(-c3ccc4ccc(-c5cn(-c6cccc(NC(=O)CN(CC)CC)c6)nn5)cc4c3)nn2)c1  fold regulation (RCC4; PCR angiogenesis array, item: FLT1; 5 x IC50, 4 h, normoxia; relative to: untreated): 1.06
COC1OC(C)C(OC2OC(C)C(OS(=O)(=O)O)C(OC3OC(C)C(OC4OC(C)C(OS(=O)(=O)O)C(OC5OC(C)C(OC6OC(C)C(OS(=O)(=O)O)C(OS(=O)(=O)O)C6OS(=O)(=O)O)C(OS(=O)(=O)O)C5OS(=O)(=O)O)C4OS(=O)(=O)O)C(OS(=O)(=O)O)C3OS(=O)(=O)O)C2OS(=O)(=O)O)C(OS(=O)(=O)O)C1OS(=O)(=O)O (centres unmarked)  thrombin time (human plasma; 128 µg/mL): 10.8 ± 0.2 s
COc1cc(O)ccc1CCC(c1ccc(O)cc1)c1cc2c(c(C)c1O)OC(c1ccc(O)cc1)CC2 (mixture of isomers)  amount (item: 17-HDHA; human whole blood; 3 µM, together with: Escherichia coli): 768 ± 214 pg/mL blood
CC(C)c1ccc(N(C)c2ccc3c(c2)OCC[C@H]3CNc2cnccc2C(=O)O)cc1  IC50 (Calu-3; cell viability, CellTiter-Glo; 7 days): ≥ 10 µM
COC1OC(C)C(OC2OC(C)C(OS(=O)(=O)O)C(OC3OC(C)C(OC4OC(C)C(OS(=O)(=O)O)C(OC5OC(C)C(OC6OC(C)C(OS(=O)(=O)O)C(OC7OC(C)C(OC8OC(C)C(OS(=O)(=O)O)C(OC9OC(C)C(OC%10OC(C)C(OS(=O)(=O)O)C(OC%11OC(C)C(OS(=O)(=O)O)C(OS(=O)(=O)O)C%11O)C%10O)C(OS(=O)(=O)O)C9O)C8O)C(OS(=O)(=O)O)C7O)C6O)C(OS(=O)(=O)O)C5O)C4O)C(OS(=O)(=O)O)C3O)C2O)C(OS(=O)(=O)O)C1O (centres unmarked)  thrombin time (human plasma; 128 µg/mL): 10.2 ± 0.7 s
Cc1ncsc1-c1ccc(C(C)NC(=O)C2CC(O)CN2C(=O)C(NC(=O)CCCCCCCCCCN2CCCC(Nc3ncc(Cl)c(Nc4ccccc4S(=O)(=O)C(C)C)n3)C2)C(C)(C)C)cc1 (centres unmarked)  log2 fold change (22Rv1; RNA-seq, item: LMX1B mRNA; concentration not given; relative to: DMSO): -1.62
C=C(NC(=O)c1csc(-c2nc3c(cc2O)-c2nc(cs2)C(=O)NC(C(C)O)C(=O)NC(=C(C)OC)c2nc(cs2)C(=O)NC2c4nc(cs4)C(=O)NC(COC(=O)c4c5c6c(cccc6n4O)COC(=O)C(OC4CC(C)(O)C(N(C)C)C(C)O4)C2OC5)c2nc-3cs2)n1)C(N)=O (centres unmarked)  MIC50 (Enterococcus faecalis; microbial growth, broth dilution; clinical isolate): 0.0312 µg/mL (≈ 0.0217 µM)
COc1cc2c(NC3CCN(C(C)C)CC3)cc(N3CCOCC3)nc2cc1OCCCN1CCCC1  normalised protein abundance (TMT quantitative proteomics, item: ALDOA; APP AD model mice, hippocampus; dose not given): -0.0149 and 0.243 and 0.0316 and 0.0501 and 0.273 and 0.257 and 0.0188
COc1ccccc1-c1ccncc1C(=O)Nc1nnc(OCc2ccc(Cl)cc2)s1  colony survival (MDA-MB-436 BRCA1-mutant; 1.5 µM, mean of 3 replicates; relative to: untreated): 50.3%
Nc1ncc(-c2cc(-c3cnn(CC(F)(F)F)c3)ncc2F)nc1C(=O)NC1CNCC(F)C1 (centres unmarked)  remaining binding (EPHB1; KINOMEscan; 1 µM; relative to: DMSO control): 87%
CNS(=O)(=O)Nc1nccc(Cc2c(C)c3ccc(Oc4ncccc4F)cc3oc2=O)c1F  IC50 (U-2 OS; cell viability, inhibitor, CellTiter-Glo; 7 days): > 1 µM
C=CC(=O)N1[C@H](c2ccc3c(c2)OCO3)c2[nH]c3ccccc3c2C[C@@H]1C(=O)N1CCN(C)CC1  relative co-enrichment (human cyclin E1 N112C-3xFLAG:CDK2; co-IP with TMT proteomics, item: PUF60; concentration not given, Q9UHX1; relative to: wild type DMSO): 113%
COC1OC(C)C(OC2OC(C)C(OS(=O)(=O)O)C(OC3OC(C)C(OS(=O)(=O)O)C(OS(=O)(=O)O)C3O)C2O)C(OS(=O)(=O)O)C1O (centres unmarked)  thrombin time prolongation (human plasma; 128 µg/mL; relative to: control): 0.9 fold
C=CC(=O)Nc1cccc(Cn2ncc3cnc(Nc4cnn(CCOC)c4)nc32)c1  percent of control (NLK human; binding, KINOMEscan; 100 nM; lower = stronger binding): 100%
CN1CCCNC(=O)c2cccc(c2)C(=O)NCCCN(C)CCCNc2cccc3c2C(=O)c2cccc(c2C3=O)NCCC1  log2 fold change (SAS; RNA-Seq, item: DIMT1 mRNA; 1 µM, 6 h; relative to: untreated cells): -0.68
COC1OC(C)C(O)C(OC2OC(C)C(O)C(OC3OC(C)C(O)C(OC4OC(C)C(O)C(OC5OC(C)C(O)C(OS(=O)(=O)O)C5OS(=O)(=O)O)C4OS(=O)(=O)O)C3OS(=O)(=O)O)C2OS(=O)(=O)O)C1OS(=O)(=O)O (centres unmarked)  thrombin time prolongation (human plasma; 128 µg/mL; relative to: control): 1 fold
Cc1cccc2c1N(C(=O)n1ccnn1)CC2  hypocotyl length (Arabidopsis thaliana; max2-1 mutant, seedlings; 5 µM, together with: (±)-GR24 1 µM): 8.93 mm
COC1OC(C)C(OC2OC(C)C(OS(=O)(=O)O)C(OC3OC(C)C(OC4OC(C)C(OS(=O)(=O)O)C(OC5OC(C)C(OC6OC(C)C(OS(=O)(=O)O)C(OC7OC(C)C(OC8OC(C)C(OS(=O)(=O)O)C(OC9OC(C)C(OC%10OC(C)C(OS(=O)(=O)O)C(OS(=O)(=O)O)C%10O)C(OS(=O)(=O)O)C9O)C8O)C(OS(=O)(=O)O)C7O)C6O)C(OS(=O)(=O)O)C5O)C4O)C(OS(=O)(=O)O)C3O)C2O)C(OS(=O)(=O)O)C1O (centres unmarked)  thrombin time (human plasma; 128 µg/mL): 10.1 ± 0.6 s
COC1CN([C@H]2CC[C@H]([C@@]3(C)Oc4c(Cl)cc(C(=O)NCc5c(SC)cc(C)[nH]c5=O)c(C)c4O3)CC2)C1  log2 fold change (RNA-seq, item: SRCIN1; human, whole blood; dose not given, 24 h; relative to: pretreatment baseline): 3.44
